Measured values gathered from unrelated publications.
Protocols differ between the studies behind these lines. ± gives the spread as reported. Values after ≈ are worked out from the molar mass of the structure shown.

O=C(O)/C=C/c1ccccc1 — measured concentration (rat plasma QC sample; 1024 ng/mL nominal, 15 days, -80 °C, high QC level storage stability): 1030 ± 47.9 ng/mL
Cc1[nH]c(=O)c(CNC(=O)c2ccc(Cl)nc2)c2c1CCCC2 — kinetic solubility (U-HPLC; 20% DMSO in water): 0.213 mg/mL (≈ 643 µM)
NCCCC[C@@H]1NC(=O)[C@@H](Cc2c[nH]c3ccccc23)NC(=O)[C@H](c2ccccc2)NC(=O)[C@@H]2C[C@@H](OC(=O)NCCN)CN2C(=O)[C@H](Cc2ccccc2)NC(=O)[C@H](Cc2ccc(OCc3ccccc3)cc2)NC1=O — beta half-life (radioimmunoassay; healthy human male volunteers, plasma; subcutaneous, 200 µg): 7.8 ± 2.1 h
CN(CCC(=O)O)C(=O)c1ccc2c(c1)CC[C@@H]1[C@@H]2CC[C@]2(C)C(c3cncc(F)c3)=CC[C@@H]12 — exposure margin (refers to: unbound AUC(0-24) steady state; Wistar rat, female; 70 mg/kg; baseline: animal over human at 60 mg BID): ~21 fold
COc1ccc(-c2cc(=O)c3c(O)c(OC)c(OC)c(OC)c3o2)cc1OC — tissue to peel content ratio (C57BL/6 mouse, male, small intestine; oral, 1% w/w in diet, 6 weeks, orange peel extract diet; baseline: content in orange peel): 17.6%
CC(=O)O[C@H]1C(=O)[C@@]2(C)[C@H]([C@H](OC(=O)c3ccccc3)[C@]3(O)C[C@H](OC(=O)[C@H](O)[C@@H](NC(=O)c4ccccc4)c4ccccc4)C(C)=C1C3(C)C)[C@]1(OC(C)=O)CO[C@@H]1C[C@@H]2O — volume of distribution (Vz) (noncompartmental analysis; human, plasma; intravenous, 80 mg/m^2, day 8, DL3 geometric mean, added: onalespib 200 mg/m^2): 213 ± 74.3 L/m²
CCCC[C@H](NC(C)=O)C(=O)N[C@H]1CCC(=O)NC[C@@H](C(=O)N[C@@H](Cc2c[nH]c3ccccc23)C(N)=O)NC(=O)[C@H](CCCNC(=N)N)NC(=O)[C@@H](Cc2ccccc2)NC(=O)[C@H](Cc2c[nH]cn2)NC1=O — AUC(0-last) (beagle dog, female, plasma; subcutaneous, 40.0 mg/kg daily, day 14): 6.22 µg·h/mL
Nc1ccn([C@@H]2O[C@H](CO)[C@@H](O)C2(F)F)c(=O)n1 — measured concentration (THU-treated rat plasma; 3200.00 ng/mL, 2 months, -80 °C, frozen storage, high QC): 3195 ± 15.4 ng/mL
CC[C@H](C)[C@H](NC(=O)[C@H](Cc1ccccc1)NC(=O)[C@H](CCC(=O)O)NC(=O)[C@H](CCCCNC(=O)COCCOCCNC(=O)COCCOCCNC(=O)CC[C@H](NC(=O)CCCCCCCCCCCCCCCCC(=O)O)C(=O)O)NC(=O)[C@H](C)NC(=O)[C@H](C)NC(=O)[C@H](CCC(N)=O)NC(=O)CNC(=O)[C@H](CCC(=O)O)NC(=O)[C@H](CC(C)C)NC(=O)[C@H](Cc1ccc(O)cc1)NC(=O)[C@H](CO)NC(=O)[C@H](CO)NC(=O)[C@@H](NC(=O)[C@H](CC(=O)O)NC(=O)[C@H](CO)NC(=O)[C@@H](NC(=O)[C@H](Cc1ccccc1)NC(=O)[C@@H](NC(=O)CNC(=O)[C@H](CCC(=O)O)NC(=O)C(C)(C)NC(=O)[C@@H](N)Cc1cnc[nH]1)[C@@H](C)O)[C@@H](C)O)C(C)C)C(=O)N[C@@H](C)C(=O)N[C@@H](Cc1c[nH]c2ccccc12)C(=O)N[C@@H](CC(C)C)C(=O)N[C@H](C(=O)N[C@@H](CCCNC(=N)N)C(=O)NCC(=O)N[C@@H](CCCNC(=N)N)C(=O)NCC(=O)O)C(C)C — average steady-state concentration (human highest body weight; 0.5 mg once weekly, 116.8-198.3 kg): 10.5 nmol/L
COC(=O)C[C@](O)(CCCC(C)(C)O)C(=O)O[C@@H]1C(OC)=C[C@]23CCCN2CCc2cc4c(cc2[C@H]13)OCO4 — tissue concentration (CD1 mouse, spleen; oral, 1 mg/kg, 24 h, below quantification limit 1.00 ng/mL): not detected
CC(C)=CCC[C@](C)(O[C@@H]1O[C@H](CO)[C@@H](O)[C@H](O)[C@H]1O)[C@H]1CC[C@]2(C)[C@@H]1[C@H](O)C[C@@H]1[C@@]3(C)CC[C@H](O[C@@H]4O[C@H](CO)[C@@H](O)[C@H](O)[C@H]4O[C@@H]4O[C@H](CO)[C@@H](O)[C@H](O)[C@H]4O)C(C)(C)[C@@H]3CC[C@]12C — AUC(0-36 h) (Sprague Dawley rat, male, plasma; oral, 42 mg/kg, in white ginseng extract): 25.9 ± 8.8 µg·h/mL
O=c1[nH]c(=O)c2c[nH]nc2[nH]1 — Ae(0-24) ratio (human, male, urine; oral, 10 mg, added: allopurinol 300 mg; baseline: combination over alone): 119%
CCN(CC)CCNC(=O)c1c(C)[nH]c(/C=C2\C(=O)Nc3ccc(F)cc32)c1C — maximum trough plasma concentration (human, plasma; oral, 20 mg/m2, day 21): 62.9 ng/mL
Cc1cccc(C)c1OCC(=O)N[C@@H](Cc1ccccc1)[C@@H](O)C[C@H](Cc1ccccc1)NC(=O)[C@H](C(C)C)N1CCCNC1=O — free drug permeability (modified PAMPA Franz cell; phosphate buffer with HPMCAS; stock 12 mg/mL, 3 h, 25 °C, 454 nm system, 300 rpm, added: 3% BSA receiver): 279 ± 22 nm/s

Repeated from above:
CN(CCC(=O)O)C(=O)c1ccc2c(c1)CC[C@@H]1[C@@H]2CC[C@]2(C)C(c3cncc(F)c3)=CC[C@@H]12 — exposure margin (refers to: unbound AUC(0-24) steady state; Wistar rat, female; 70 mg/kg; baseline: animal over human at 60 mg BID): ~21 fold
